Assay results gathered from unrelated publications.
Protocols differ between the studies behind these lines.

Under “patients with abdominal distension”, `C[C@@H]1OC(=O)NN=C1c1ccc(-c2ccc(F)cc2)c(C(F)(F)F)c1` is recorded as 0% (patients, phase I trial; oral, 5 mg once daily, any grade TEAE).
`Cc1cc(OCCOCCC(F)(F)P(=O)(O)O)ccc1CCc1cnc2c(N)nc3cc(CCC(=O)O)ccc3c2c1`: “patients with non-serious AE” 23.8% (refers to: asthenia; adults with advanced solid tumours; dose not given, by treatment group, all grades).
`C=CC(=O)N1CC[C@H](n2nc(C#Cc3cc(OC)cc(OC)c3)c3c(N)ncnc32)C1` — result for “patients with ADR”: 100% (hyperphosphataemia patients; oral, once daily, grade ≥3, ferric citrate users).
`Nc1nc2cc(-c3ccc4ncc(C(=O)N5CCOCC5)n4c3)ccc2o1`: “patients with adverse event” 0% (refers to: Constipation; advanced solid tumour patients; dose not given).
`CN1CC[C@@H](c2c(O)cc(O)c3c(=O)cc(-c4ccc(C(F)(F)F)cc4Cl)oc23)[C@@H]1CO` — result for “patients with adverse event”: 0% (refers to: Sepsis; relapsed AML; oral, 100 mg, grade 3-4, intermittent dosing).
`COc1ccc(-c2c(-c3ccc(C#N)c(F)c3)nc(N3CCC(N)CC3)n(C)c2=O)cc1F` — result for “patients with TRAE any grade”: 0% (refers to: rash maculo-papular; relapsed/refractory MZL patients; oral, 60 mg, dose expansion).
`Cn1cc(-c2nc(N[C@@H]3CCCC[C@@H]3N)c(F)c3c2C(=O)NC3)cn1` — result for “patients with any bleeding”: 70% (relapsed/refractory AML patients; oral, dose not given, phase Ib trial, all doses).
`CCNCCCNC/C=C\CNCCCNCC` — result for “patients with TEAEs”: 70% (advanced refractory solid tumour patients; intravenous, dose not given, cycle 2).
For `CO[C@H]1C[C@@H]2CC[C@@H](C)[C@@](O)(O2)C(=O)C(=O)N2CCCC[C@H]2C(=O)O[C@H]([C@H](C)C[C@@H]2CC[C@@H](OC(=O)NCCOCCOCCOCCOCCOCCOCCOCCOCCC(=O)N3CCc4cc(Cn5nc(-c6ccc7oc(N)nc7c6)c6c(N)ncnc65)ccc4C3)[C@H](OC)C2)C[C@@H](O)[C@H](C)/C=C(\C)[C@@H](O)[C@@H](OC)C(=O)[C@H](C)C[C@H](C)/C=C/C=C/C=C/1C`, “patients with AE” read 0% (refers to: treatment-related AEs; patients with advanced solid tumours; intravenous, dose not given, any grade, all doses).
For `CC(=O)c1c(C)c2cnc(Nc3ccc(C4CCN(CCS(C)(=O)=O)CC4)cn3)nc2n(C2CCCC2)c1=O`, “patients with any TRAE” read 100% (HR+/HER2- advanced breast cancer patients; oral, 100 mg).
`C=CCNc1c(O)cc2c(O)c1C[C@@H](C)C[C@H](OC)[C@H](O)[C@@H](C)/C=C(\C)[C@H](OC(N)=O)[C@@H](OC)/C=C\C=C(/C)C(=O)N2` — result for “patients with AST increase”: 0% (unresectable or metastatic sarcoma; intravenous, 300 mg/m^2, grade 3-4 lab change).
For `Cc1nc(-c2cnc(NC(C)C)n(C)c2=O)ccc1Oc1ccnc(-c2cnn(C)c2)c1`, “patients with serious treatment-related TEAE” read 6% (patients with TGCT; oral, dose not given, NCI-CTCAE v4.03).
`O=C1Nc2cc3[nH]nc(-c4ccncc4)c3cc2CN1Cc1ccccc1`: “patients with ≥1 TEAE” 100% (CTCAE v4.03; advanced solid tumour patients; intravenous, 5.4 mg/kg, schedules 1/2).
`N[C@@H]1c2ccccc2OC12CCN(c1cnc3c(N4CCCc5ncccc54)n[nH]c3n1)CC2`: “patients with any TEAE” 100% (advanced solid tumour patients; oral, 150 mg once daily).
Under “patients with adverse event”, `COc1nnc2ccc(N3CCC(c4ccc(OCCN5CCN(C)C(=O)[C@H]5C)cc4)CC3)nn12` is recorded as 26.5% (refers to: nausea; patients with solid tumours or lymphoma; oral, dose not given, all grades, treatment-emergent).
`COc1cc2c(Oc3ccc4[nH]c(C)cc4c3F)ccnc2cc1OCC1(N)CC1`: “patients with grade 3 Cholesterol elevation” 0% (paediatric refractory sarcoma patients; 8 mg/kg).

Repeated from above:
Under “patients with abdominal distension”, `C[C@@H]1OC(=O)NN=C1c1ccc(-c2ccc(F)cc2)c(C(F)(F)F)c1` is recorded as 0% (patients, phase I trial; oral, 5 mg once daily, any grade TEAE).
`C=CCNc1c(O)cc2c(O)c1C[C@@H](C)C[C@H](OC)[C@H](O)[C@@H](C)/C=C(\C)[C@H](OC(N)=O)[C@@H](OC)/C=C\C=C(/C)C(=O)N2` — result for “patients with AST increase”: 0% (unresectable or metastatic sarcoma; intravenous, 300 mg/m^2, grade 3-4 lab change).
